Results collected from several papers.
Protocols differ between the studies behind these lines. “And” joins repeats or separate records; there may be more than shown. ± marks the error that the study gave.

The growth percent of `CC1OC2OC3C4=C(OC3(C)C12O)C(=O)c1c(O)cccc1C4=O` (stereo not shown) is reported as -36.7% (HL-60; sulforhodamine B; 10 µg/mL, 48 h; negative means cell kill).
The CC50 of `O=C(C[Se]C(=O)c1ccccc1Nc1ccccc1)Nc1cccc(C(F)(F)F)c1` is reported as 7.6 µM (NCI60 CNS subpanel; NCI60 five-dose screen).
`O=C1C=CC(=O)c2c(O)cccc21` has a selectivity index of 0.81 (HepG2; MTT; relative to: IC50 MRC-5 over IC50 HepG2).
For `NC(=O)N/N=C/c1ccc(OCc2ccccc2)cc1`, “glutathione peroxidase activity (OD450)” read 0.11 a.u. (IMR-32; measured: GPX3; 100 µg/mL, 24 h; higher = more activity).
For `Cc1cc(Oc2nc(N3CC[C@@H](c4ccncc4)C3)ncc2F)[nH]n1`, the IC50 was 77.6 µM (COLO-678; cell proliferation; colon cancer).
`CSCC[C@H](NC(=O)[C@@H](NC(=O)[C@H](CCC(N)=O)NC(=O)[C@H](CO)NC(=O)[C@@H](N)C(C)C)[C@@H](C)O)C(=O)N[C@@H](CCCNC(=N)N)C(=O)N[C@@H](CCC(N)=O)C(=O)N[C@H](C(=O)N[C@@H](C)C(=O)N[C@H](C(=O)N1CCC[C@H]1C(=O)N[C@@H](CC(C)C)C(=O)N[C@@H](CC(C)C)C(=O)N[C@@H](Cc1c[nH]c2ccccc12)C(=O)N[C@@H](Cc1ccccc1)C(=O)N[C@@H](Cc1c[nH]c2ccccc12)C(=O)N[C@H](C(=O)NCC(=O)N[C@@H](CO)C(=O)N[C@@H](CC(C)C)C(=O)NCCOCCOCCOCCOCCOCCOCCOCCOCCOCCOCCOCCOCCC(=O)N[C@@H](CS)C(N)=O)[C@@H](C)O)C(C)C)[C@@H](C)O` has a selectivity ratio of 20 ± 5.3 (MiaPaCa pancreatic cancer; cell binding, phage binding, measured: output/input phage; 10 min, 37 °C; relative to: control phage).
With `COc1ccccc1-c1ccncc1C(=O)Nc1nnc(OCc2ccc(Cl)cc2)s1` the colony survival was 97.9% and 94.6% and 97% (DLD-1 parental; 1 µM; relative to: untreated).
For `CC(=O)NCSC[C@H](NC(=O)[C@@H]1CCCN1C(=O)[C@H](C)NC(=O)[C@@H](NC(=O)CNC(=O)[C@@H](NC(=O)[C@H](Cc1c[nH]c2ccccc12)NC(=O)[C@H](C)NC(=O)CNC(=O)[C@H](CO)NC(=O)[C@H](C)NC(=O)[C@@H]1CCCN1C(=O)[C@H](Cc1c[nH]c2ccccc12)NC(=O)[C@H](C)NC(=O)[C@H](C)NC(=O)[C@@H](N)Cc1ccc(O)cc1)[C@@H](C)O)[C@@H](C)O)C(=O)N[C@@H](CO)C(=O)N[C@@H](C)C(=O)NCC(=O)N[C@H](C(=O)NCCOCCOCCOCCOCCOCCOCCOCCOCCOCCOCCOCCOCCC(=O)N[C@@H](CS)C(N)=O)[C@@H](C)O`, the selectivity ratio was 0.31 ± 0.27 (LNCaP prostate carcinoma; cell binding, phage binding, measured: output/input phage; 10 min, 37 °C; relative to: control phage).
The mean TGI of `O=C(C[Se]C(=O)c1ccco1)Nc1cccc(C(F)(F)F)c1` is reported as 5.66 µM (NCI60 CNS subpanel; NCI60 five-dose screen).
With `CC(C)(C)C(=O)OCOP(=O)(OCOC(=O)C(C)(C)C)C1CCCN(O)C1=O` (stereo not shown) the GI50 was 0.434 µM (NCI/ADR-RES).

Some of these lines once more:
The mean TGI of `O=C(C[Se]C(=O)c1ccco1)Nc1cccc(C(F)(F)F)c1` is reported as 5.66 µM (NCI60 CNS subpanel; NCI60 five-dose screen).
With `CC(C)(C)C(=O)OCOP(=O)(OCOC(=O)C(C)(C)C)C1CCCN(O)C1=O` (stereo not shown) the GI50 was 0.434 µM (NCI/ADR-RES).
